Assay results pooled from the literature.
Lines come from different studies, so protocols differ. ± marks the error that the study gave.
Cell line: RAW264.7

CC(=O)O[C@H]1CC[C@]2(C)[C@H]3CC=C4[C@@H]5CC(C)(C)CC[C@]5(C(=O)O)CC[C@@]4(C)[C@]3(C)CC[C@H]2C1(C)C  IC50 (NO release, inhibitor, Griess; LPS-stimulated): > 100 µM
CCCCn1cc(C(=O)O)c(=O)c2cc(F)c(N)c([N+](=O)[O-])c21  IC50 (nitric oxide production, Griess; 24 h, with: LPS): 33.3 ± 2.25 µg/mL
COc1ccc2c3c(oc2c1CC=C(C)C)-c1cc(CC=C(C)C)c(O)cc1OC3  IC50 (nitric oxide production; up to 100 µM, with: LPS): inactive
C=CC(=O)Nc1ccc2c(c1)cc(C(=O)Nc1cccc(-c3cn4c(C(=O)OCC)csc4n3)c1)n2Cc1ccc(C(F)(F)F)cc1  IC50 (IL-6 release, inhibitor, ELISA; 24 h, LPS-stimulated): 1.44 µM
O=C(CCc1ccc(O)c(O)c1)NCCc1ccc(O)c(O)c1  IC50 (NO release, inhibitor, Griess; 24 h, LPS-stimulated): > 20 µM
COc1c(CC=C(C)C)c(O)cc2c1[C@@H]1Oc3c(ccc(O)c3CC=C(C)C)[C@@H]1CO2  IC50 (nitric oxide production; up to 100 µM, with: LPS): inactive
CC/C=C\C/C=C\C/C=C\CCCCCC(=O)OC[C@@H](O)CO[C@@H]1O[C@H](CO)[C@H](O)[C@H](O)[C@H]1O  IC50 (NO release, inhibitor, Griess; 20 h, LPS-stimulated): 63.8 µM
O=C(/C=C/c1ccc(O)c(O)c1)NCCc1ccccc1  IC50 (NO release, inhibitor, Griess; 24 h, LPS-stimulated): 2.38 µM
CC1C(O)CC2(CO)CCC3(C)C(=CCC4C(C)(CCC(=O)O)C(C(C)(O)CO)CCC43C)C2C1C (centres unmarked)  IC50 (NO production, Griess; 24 h, pre-incubated with HMGB1 15 min, with: HMGB1): 9.37 µM
O=c1c2cc(Cl)cc(Cl)c2oc2nc(N3CCCCC3)sc12  IC50 (IL-1β release, inhibitor, ELISA; 48 h, LPS-stimulated): 22.2 µM
CCn1cc(/C=C/c2ccc3ccccc3[n+]2CC)c2ccccc21  IC50 (cell growth or viability, MTT; 24 h): 5.18 µM
Oc1ccc(-c2cc(-c3ccc(OCCN4CCCCC4)cc3)n(-c3ccc(O)cc3)n2)cc1  IC50 (cell growth or viability, resazurin): 11.7 µM
CC(C)=CCc1c2c(c(O)c3c(=O)c(-c4ccc(O)cc4)coc13)CC(C(C)(C)O)O2 (centres unmarked)  IC50 (cell growth or viability, MTT): 31.4 µM
CCOC(=O)c1csc2nc(-c3cccc(NC(=O)c4cc5cc(NC(=O)c6ccco6)ccc5n4Cc4ccc(C(F)(F)F)cc4)c3)cn12  IC50 (TNF-α release, inhibitor, ELISA; 24 h, LPS-stimulated): 22 µM
COc1ccc2c(c1CC=C(C)C)O[C@H]1c3cc4c(cc3OC[C@@]21O)OC(C)(C)C=C4  IC50 (nitric oxide production; up to 100 µM, with: LPS): inactive
CCc1c(-c2ccc(O)cc2)nn(-c2ccc(O)cc2)c1-c1ccc(OCCN2CCCCC2)cc1  IC50 (TNF-alpha production, inhibitor; with: CpG-DNA): 2.84 ± 0.12 µM
CCCCC/C=C\C/C=C\CCCCCCCC(=O)OC[C@H](CO[C@@H]1O[C@H](CO)[C@H](O)[C@H](O)[C@H]1O)OC(=O)CCCCCCC/C=C\C/C=C\CCCCC  IC50 (NO release, inhibitor, Griess; 20 h, LPS-stimulated): 8 µM
O=C(CCc1ccc(O)c(O)c1)NCCc1ccccc1  IC50 (NO release, inhibitor, Griess; 24 h, LPS-stimulated): > 5 µM
CC(C)=CCC[C@@](C)(O)[C@H]1CC[C@]2(C)[C@@H]1CC[C@@H]1[C@@]3(C)CCC(=O)C(C)(C)[C@@H]3CC[C@]12C  IC50 (NO release, inhibitor, Griess; LPS-stimulated): 95.7 µM
CC(C)=CCc1c(O)ccc2c1O[C@H]1c3cc4c(cc3OC[C@@H]21)OC(C)(C)C=C4  IC50 (nitric oxide production; up to 100 µM, with: LPS): inactive
CCc1c(-c2ccc(O)cc2)nn(-c2ccc(O)cc2)c1-c1ccc(OCCN2CCCCC2)cc1  IC50 (cell growth or viability, resazurin): 3.89 µM
CCOC(=O)c1csc2nc(-c3cccc(NC(=O)c4cc5cc(NC(=O)C(C)Cl)ccc5n4Cc4ccc(C(F)(F)F)cc4)c3)cn12 (centres unmarked)  IC50 (IL-6 release, inhibitor, ELISA; 24 h, LPS-stimulated): 2.29 µM
CC1=C(C)C(=O)O[C@@H]([C@@H](C)C2=C[C@@H](O)[C@]3(O)[C@@H]4C[C@@H](O)[C@@]5(O)CC=CC(=O)[C@]5(C)[C@H]4CC[C@]23C)C1  IC50 (NO release, inhibitor, Griess; LPS-stimulated): 38.7 µM
CC(C)C1=C(OC(=O)CCc2ccccc2)C(=O)C2=C(C=C[C@H]3C(C)(C)CCC[C@]23C)C1=O  IC50 (NO release, inhibitor; 24 h, LPS-stimulated): 3.48 µM
CO[C@H]1CC(=O)[C@]2(C)[C@H]3CC[C@]4(C)C([C@H](C)[C@H]5CC(C)=C(C)C(=O)O5)=C[C@H](OC(C)=O)[C@@]4(O)[C@@H]3C[C@H]3O[C@]32C1  IC50 (NO release, inhibitor, Griess; LPS-stimulated): 25.7 µM
CC(C)=CCc1c(O)c(CC=C(C)C)c2occ(-c3ccc(O)c(O)c3)c(=O)c2c1O  IC50 (cell growth or viability, MTT): 43.3 µM
CC(C)=CCc1cc([C@@H]2CC(=O)c3ccc(O)c(CC=C(C)C)c3O2)c(O)c(CC=C(C)C)c1O  IC50 (nitric oxide production; up to 100 µM, with: LPS): inactive
COC(=O)[C@H](CSSC(C)(C)[C@H](NC(=O)[C@H](CCC(=O)NC[C@H](O)[C@@H](O)[C@H](O)[C@H](O)CO)NC(=O)[C@H](CCC(=O)O)NC(=O)[C@H](CCC(=O)NC[C@H](O)[C@@H](O)[C@H](O)[C@H](O)CO)NC(=O)[C@H](CCC(=O)O)NC(=O)[C@H](CCC(=O)NC[C@H](O)[C@@H](O)[C@H](O)[C@H](O)CO)NC(=O)CC[C@H](NC(=O)c1ccc(NCc2cnc3nc(N)[nH]c(=O)c3n2)cc1)C(=O)O)C(=O)O)NC(=O)CC[C@H](NC(=O)c1ccc(NCc2cnc3nc(N)nc(N)c3n2)cc1)C(=O)O  IC50 (cell viability, XTT; 2 h pulse, 70 h chase): 0.0029 µM
CN(C)C1CCN(c2nc3oc4ccccc4c(=O)c3s2)CC1  IC50 (IL-1β release, inhibitor, ELISA; 48 h, LPS-stimulated): 8.19 µM
CCCCn1cc(C(=O)O)c(=O)c2cc(F)c3[nH]nnc3c21  IC50 (nitric oxide production, Griess; 24 h, with: LPS): 969 ± 177 µg/mL
CC[C@@]1(C)CC[C@H]2[C@@](C)(CC[C@@]3(C)[C@@H]4CC(C)(C)CC[C@]4(C)CC[C@]23C)[C@@H]1CCC(=O)O  IC50 (NO release, inhibitor, Griess; LPS-stimulated): 71.9 µM
CC(C)=CCc1cc([C@@H]2CC(=O)c3c(O)cc(O)c(CC=C(C)C)c3O2)cc(CC=C(C)C)c1O  IC50 (nitric oxide production; up to 100 µM, with: LPS): inactive
O=c1c2ccccc2oc2nc(N3CCC(N4CCCCC4)CC3)sc12  IC50 (IL-1β release, inhibitor, ELISA; 48 h, LPS-stimulated): 24.4 µM
COc1ccc(-c2coc3c(CC=C(C)C)c(O)c(CC=C(C)C)c(O)c3c2=O)cc1O  IC50 (cell growth or viability, MTT): 57.6 µM
CCC(=O)NCc1ccccc1  IC50 (PGE2 release, inhibitor, ELISA; 24 h, LPS-stimulated): > 200 µM

Excerpt of the above:
O=c1c2cc(Cl)cc(Cl)c2oc2nc(N3CCCCC3)sc12  IC50 (IL-1β release, inhibitor, ELISA; 48 h, LPS-stimulated): 22.2 µM
CCn1cc(/C=C/c2ccc3ccccc3[n+]2CC)c2ccccc21  IC50 (cell growth or viability, MTT; 24 h): 5.18 µM
Oc1ccc(-c2cc(-c3ccc(OCCN4CCCCC4)cc3)n(-c3ccc(O)cc3)n2)cc1  IC50 (cell growth or viability, resazurin): 11.7 µM
CC(C)=CCc1c2c(c(O)c3c(=O)c(-c4ccc(O)cc4)coc13)CC(C(C)(C)O)O2 (centres unmarked)  IC50 (cell growth or viability, MTT): 31.4 µM
CCOC(=O)c1csc2nc(-c3cccc(NC(=O)c4cc5cc(NC(=O)c6ccco6)ccc5n4Cc4ccc(C(F)(F)F)cc4)c3)cn12  IC50 (TNF-α release, inhibitor, ELISA; 24 h, LPS-stimulated): 22 µM
